Published values from different studies.
Numbered parts are unrelated; each lists some results of a single study. “And” joins repeats or separate records; there may be more than shown.

Series 1
Compound: CC(C)(C)c1cnc(CSc2cnc(NC(=O)C3CCN(CCCCCSc4cccc5c4CN(C4CCC(=O)NC4=O)C5=O)CC3)s2)o1 (stereo not shown)
Species: Sprague-Dawley rat, male
Dose: dose not given
| route | time | body weight |
| --- | --- | --- |
| intraperitoneal | day 3 | 239 g and 216 g and 210 g |
| subcutaneous | day 12 | 218 g and 280 g |
| intraperitoneal | day 4 | 215 g and 240 g and 213 g |
| subcutaneous | day 2 | 200 g and 225 g and 224 g |
| intraperitoneal | day 5 | 241 g and 213 g and 206 g |
| intraperitoneal | day -1 | 201 g and 221 g and 199 g |
| subcutaneous | day -1 | 214 g and 195 g and 211 g |

Series 2
Target: Calcium/calmodulin-dependent protein kinase type II subunit alpha (CAMK2A, Homo sapiens, UniProt Q9UQM7)
Sequence of UniProt Q9UQM7 (whole entry, looked up): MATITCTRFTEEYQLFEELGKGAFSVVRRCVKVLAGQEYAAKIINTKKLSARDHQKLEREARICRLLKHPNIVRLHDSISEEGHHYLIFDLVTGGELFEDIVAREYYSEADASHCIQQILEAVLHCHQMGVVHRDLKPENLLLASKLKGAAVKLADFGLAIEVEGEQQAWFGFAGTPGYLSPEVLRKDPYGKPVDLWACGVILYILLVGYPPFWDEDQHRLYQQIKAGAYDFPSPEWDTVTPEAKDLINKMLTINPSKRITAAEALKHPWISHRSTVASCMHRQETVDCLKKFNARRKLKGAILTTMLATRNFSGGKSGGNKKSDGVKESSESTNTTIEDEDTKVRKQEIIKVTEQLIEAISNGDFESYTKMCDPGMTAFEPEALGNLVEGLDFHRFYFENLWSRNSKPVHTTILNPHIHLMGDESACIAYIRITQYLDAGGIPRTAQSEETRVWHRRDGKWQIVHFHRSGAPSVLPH
Read-out: enzyme activity
Action: inhibitor
Tested at: 10 µM
| SMILES | inhibition [%] |
| --- | --- |
| N#CCc1c[nH]c2ccccc12 | -25 |
| CCC(COC(=O)c1cc(OC)c(OC)c(OC)c1)(c1ccccc1)N(C)C (stereo not shown) | -10 |
| CCCCCOc1ccc(-c2ccc(-c3ccc(C(=O)N[C@H]4C[C@@H](O)[C@@H](O)NC(=O)[C@@H]5[C@@H](O)[C@@H](C)CN5C(=O)[C@H]([C@@H](C)O)NC(=O)[C@H]([C@H](O)[C@@H](O)c5ccc(O)cc5)NC(=O)[C@@H]5C[C@@H](O)CN5C(=O)[C@H]([C@@H](C)O)NC4=O)cc3)cc2)cc1 | -19 |
| COc1cc2c(cc1O)-c1cc3ccc(OC)c(OC)c3c[n+]1CC2 | -1 |
| C=C1C(=O)O[C@@H]2O[C@@]3(C)CC[C@H]4[C@H](C)CC[C@@H]1[C@@]24OO3 | 13 |

Series 3
Cell line: mouse MPNST tumor cells
Method: high-content nuclear imaging
Refers to: cell number
Tested at: 10 µM
Time: 12 h
Notes: mean of 2 replicates
Baseline: plate mean
Reading: higher = more cells
| Compound | nuclei count [z-score] |
| --- | --- |
| CC(C)c1c(CN(C)C(C)Cc2ccccc2)n(C)n(-c2ccccc2)c1=O (stereo not shown) | 2.09 |
| O=c1[nH]c2ccccc2n1CCCN1CCC(n2c(=O)[nH]c3cc(Cl)ccc32)CC1 | 2.74 |
| CC(=O)NCCc1c[nH]c2ccccc12 | 2.2 |

Series 4
Target: Beta-1 adrenergic receptor (ADRB1, Homo sapiens, UniProt P08588)
Sequence of UniProt P08588 (whole entry, looked up): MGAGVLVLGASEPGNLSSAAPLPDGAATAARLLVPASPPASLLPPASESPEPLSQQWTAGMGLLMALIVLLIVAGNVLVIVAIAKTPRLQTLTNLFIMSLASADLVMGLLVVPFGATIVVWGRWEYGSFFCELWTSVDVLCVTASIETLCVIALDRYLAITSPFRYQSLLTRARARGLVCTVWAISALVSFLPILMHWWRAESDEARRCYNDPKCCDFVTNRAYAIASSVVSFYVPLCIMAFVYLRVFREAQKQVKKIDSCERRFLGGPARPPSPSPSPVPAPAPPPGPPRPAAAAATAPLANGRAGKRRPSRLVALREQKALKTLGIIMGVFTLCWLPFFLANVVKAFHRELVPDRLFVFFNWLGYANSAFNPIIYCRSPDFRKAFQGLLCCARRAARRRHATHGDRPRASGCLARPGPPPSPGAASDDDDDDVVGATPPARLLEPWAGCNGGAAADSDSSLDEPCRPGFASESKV
Action: agonist
| SMILES | Emax |
| --- | --- |
| CNCCc1ccc(O)c(O)c1 | 92.3% |
| CCCN(CCC)C1CCc2c(ccc(O)c2O)C1 (stereo not shown) | 77% |
| CC(C)NCC(O)c1cc(O)cc(O)c1 (stereo not shown) | 66% |
| CC(C)(C)NCC(O)c1ccc(O)c(O)c1 (stereo not shown) | 61.7% |
| Nc1c(Cl)cc(C(O)CNC2CCC(O)CC2)cc1Cl (stereo not shown) | 95.7% |
| CC(N)[C@H](O)c1ccc(O)c(O)c1 (stereo partly shown) | 103% |
| C[C@H](Cc1ccc2c(c1)OC(C(=O)O)(C(=O)O)O2)NC[C@H](O)c1cccc(Cl)c1 | 86.8% |

A few entries again (series 1):
| route | time | body weight |
| --- | --- | --- |
| intraperitoneal | day 4 | 215 g and 240 g and 213 g |
| subcutaneous | day 2 | 200 g and 225 g and 224 g |
| intraperitoneal | day 5 | 241 g and 213 g and 206 g |
